Measurements collected from several papers.
Numbers after ± are the reported error.
rpoC β' subunit: rpoC β' subunit 1-1407 (Escherichia coli, UniProt P0A8T7)
rpoA/rpoB/rpoC/rpoZ: rpoA/rpoB/rpoC/rpoZ (Escherichia coli)
CNR2 full length, on cells Q63R: CNR2 full length, on cells Q63R (Homo sapiens, UniProt P34972)
rpoC: rpoC 1-1407 (Escherichia coli, UniProt P0A8T7)
B1: dksA (Escherichia coli, UniProt P0ABS1); sequence looked up; chain MQEGQNRKTSSLSILAIAGVEPYQEKPGEEYMNEAQLAHFRRILEAWRNQLRDEVDRTVTHMQDEAANFPDPVDRAAQEEEFSLELRNRDRERKLIKKIEKTLKKVEDEDFGYCESCGVEIGIRRLEARPTADLCIDCKTLAEIREKQMAG
B2: traR 1-73 (Escherichia coli, UniProt P41065); chain MSDEADEAYSVTEQLTMTGINRIRQKINAHGIPVYLCEACGNPIPEARRKIFPGVTLCVECQAYQERQRKHYA
B3: dksA A35C (Escherichia coli, UniProt P0ABS1); Alexa Fluor 546 label; sequence looked up; chain MQEGQNRKTSSLSILAIAGVEPYQEKPGEEYMNECQLAHFRRILEAWRNQLRDEVDRTVTHMQDEAANFPDPVDRAAQEEEFSLELRNRDRERKLIKKIEKTLKKVEDEDFGYCESCGVEIGIRRLEARPTADLCIDCKTLAEIREKQMAG
B4: rnhB (Escherichia coli, UniProt P10442); sequence looked up; chain MIEFVYPHTQLVAGVDEVGRGPLVGAVVTAAVILDPARPIAGLNDSKKLSEKRRLALYEEIKEKALSWSLGRAEPHEIDELNILHATMLAMQRAVAGLHIAPEYVLIDGNRCPKLPMPAMAVVKGDSRVPEISAASILAKVTRDAEMAALDIVFPQYGFAQHKGYPTAFHLEKLAEHGATEHHRRSFGPVKRALGLAS
B5: greB 1-158 (Escherichia coli, UniProt P30128); chain MKTPLVTREGYEKLKQELNYLWREERPEVTKKVTWAASLGDRSENADYQYNKKRLREIDRRVRYLTKCLENLKIVDYSPQQEGKVFFGAWVEIENDDGVTHRFRIVGYDEIFGRKDYISIDSPMARALLKKEVGDLAVVNTPAGEASWYVNAIEYVKP
B6: SoxS (Escherichia coli, UniProt P0A9E2); chain MSHQKIIQDLIAWIDEHIDQPLNIDVVAKKSGYSKWYLQRMFRTVTHQTLGDYIRQRRLLLAAVELRTTERPIFDIAMDLGYVSQQTFSRVFRRQFDRTPSDYRHRL

Molecule	target or system	assay	test system	setting	scale	endpoint	result
B1 (dksA)	rpoC β' subunit	crystal structure		without ppGpp		binding	binds
MoaA peptide (Staphylococcus aureus)	moaA D98A/G340A (Staphylococcus aureus, UniProt P69848)	MoaA/MoaC coupled assay		200 µM	reference: 8-mer peptide, higher = more activity	restored activity	> 5 fold
melittin		CD titration	POPC 90% POPG 10% vesicles	pH 7.0, 40 °C		free energy of partitioning	-6.95 kcal/mol
RmS-6, glycosylated (Rhipicephalus microplus)	F11 factor XIa (Homo sapiens)	chromogenic substrate hydrolysis, inhibitor		1 µM		protease inhibition	62.9%
uvrB (Escherichia coli, UniProt P0A8F8)	rpoA/rpoB/rpoC/rpoZ	dynamic light scattering				molecule per partner	1
B2 (traR 1-73)	rpoC β' subunit	crystal structure		without ppGpp		binding	binds
ARRB1 (Homo sapiens, UniProt P49407)	CNR2 full length, on cells Q63R	BRET		no exogenous GRK, together with: 2-AG		span of concentration-response	56.1 ΔBRET.s
uvrA (Escherichia coli, UniProt P0A698)	rpoA/rpoB/rpoC/rpoZ	dynamic light scattering				molecule per partner	2
RmS-3, glycosylated (Rhipicephalus microplus)	PRTN3 (Homo sapiens, UniProt P24158)	chromogenic substrate hydrolysis, inhibitor		1 µM		protease inhibition	< 20%
ARRB2 (Homo sapiens, UniProt P32121)	CNR2 full length, on cells Q63R	BRET		no exogenous GRK, together with: 2-AG		span of concentration-response	205 ΔBRET.s
B3 (dksA A35C)	rpoA/rpoB/rpoC/rpoZ core RNAP del943-1130 in rpoC (Escherichia coli)	fluorescence anisotropy		pH 7.5, 30 °C, NaCl 50 mM, apparent		Kd	42 ± 7 nM
B4 (rnhB)	rpoC	cryo-EM				binding	binds
B5 (greB 1-158)	rpoC	cryo-EM				binding	binds
B6 (SoxS)	RNA polymerase holoenzyme (Escherichia coli)	in vitro transcription			reference: without SoxS, higher = more activation	transcription activity	0.15 ratio

Some of these lines once more:
Molecule	target or system	assay	test system	setting	scale	endpoint	result
uvrA (Escherichia coli, UniProt P0A698)	rpoA/rpoB/rpoC/rpoZ	dynamic light scattering				molecule per partner	2
RmS-3, glycosylated (Rhipicephalus microplus)	PRTN3 (Homo sapiens, UniProt P24158)	chromogenic substrate hydrolysis, inhibitor		1 µM		protease inhibition	< 20%
